Published values from different studies.
A part holds a random share of what one study measured. “And” joins repeats or separate records; there may be more than shown.
Sequence of UniProt Q14164 (whole entry, looked up): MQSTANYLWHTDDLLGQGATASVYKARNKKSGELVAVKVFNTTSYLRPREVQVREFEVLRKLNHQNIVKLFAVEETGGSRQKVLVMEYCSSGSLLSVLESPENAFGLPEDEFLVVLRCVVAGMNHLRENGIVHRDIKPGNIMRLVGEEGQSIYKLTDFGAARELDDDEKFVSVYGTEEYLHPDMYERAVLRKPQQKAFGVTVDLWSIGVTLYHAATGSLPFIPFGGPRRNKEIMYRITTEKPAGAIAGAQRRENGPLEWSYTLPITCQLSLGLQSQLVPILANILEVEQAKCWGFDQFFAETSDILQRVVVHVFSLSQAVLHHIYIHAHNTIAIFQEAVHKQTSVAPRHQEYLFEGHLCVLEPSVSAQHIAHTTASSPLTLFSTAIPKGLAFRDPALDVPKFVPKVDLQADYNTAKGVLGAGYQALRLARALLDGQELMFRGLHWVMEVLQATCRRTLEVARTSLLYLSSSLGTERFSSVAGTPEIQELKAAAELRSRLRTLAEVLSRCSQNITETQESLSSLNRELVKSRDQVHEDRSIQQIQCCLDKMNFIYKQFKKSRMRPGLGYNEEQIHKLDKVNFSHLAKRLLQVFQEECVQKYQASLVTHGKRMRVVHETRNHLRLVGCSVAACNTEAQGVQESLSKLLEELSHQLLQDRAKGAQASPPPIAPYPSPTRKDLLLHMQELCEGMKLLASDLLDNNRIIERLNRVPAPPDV
Sequence of UniProt P08581 (whole entry, looked up): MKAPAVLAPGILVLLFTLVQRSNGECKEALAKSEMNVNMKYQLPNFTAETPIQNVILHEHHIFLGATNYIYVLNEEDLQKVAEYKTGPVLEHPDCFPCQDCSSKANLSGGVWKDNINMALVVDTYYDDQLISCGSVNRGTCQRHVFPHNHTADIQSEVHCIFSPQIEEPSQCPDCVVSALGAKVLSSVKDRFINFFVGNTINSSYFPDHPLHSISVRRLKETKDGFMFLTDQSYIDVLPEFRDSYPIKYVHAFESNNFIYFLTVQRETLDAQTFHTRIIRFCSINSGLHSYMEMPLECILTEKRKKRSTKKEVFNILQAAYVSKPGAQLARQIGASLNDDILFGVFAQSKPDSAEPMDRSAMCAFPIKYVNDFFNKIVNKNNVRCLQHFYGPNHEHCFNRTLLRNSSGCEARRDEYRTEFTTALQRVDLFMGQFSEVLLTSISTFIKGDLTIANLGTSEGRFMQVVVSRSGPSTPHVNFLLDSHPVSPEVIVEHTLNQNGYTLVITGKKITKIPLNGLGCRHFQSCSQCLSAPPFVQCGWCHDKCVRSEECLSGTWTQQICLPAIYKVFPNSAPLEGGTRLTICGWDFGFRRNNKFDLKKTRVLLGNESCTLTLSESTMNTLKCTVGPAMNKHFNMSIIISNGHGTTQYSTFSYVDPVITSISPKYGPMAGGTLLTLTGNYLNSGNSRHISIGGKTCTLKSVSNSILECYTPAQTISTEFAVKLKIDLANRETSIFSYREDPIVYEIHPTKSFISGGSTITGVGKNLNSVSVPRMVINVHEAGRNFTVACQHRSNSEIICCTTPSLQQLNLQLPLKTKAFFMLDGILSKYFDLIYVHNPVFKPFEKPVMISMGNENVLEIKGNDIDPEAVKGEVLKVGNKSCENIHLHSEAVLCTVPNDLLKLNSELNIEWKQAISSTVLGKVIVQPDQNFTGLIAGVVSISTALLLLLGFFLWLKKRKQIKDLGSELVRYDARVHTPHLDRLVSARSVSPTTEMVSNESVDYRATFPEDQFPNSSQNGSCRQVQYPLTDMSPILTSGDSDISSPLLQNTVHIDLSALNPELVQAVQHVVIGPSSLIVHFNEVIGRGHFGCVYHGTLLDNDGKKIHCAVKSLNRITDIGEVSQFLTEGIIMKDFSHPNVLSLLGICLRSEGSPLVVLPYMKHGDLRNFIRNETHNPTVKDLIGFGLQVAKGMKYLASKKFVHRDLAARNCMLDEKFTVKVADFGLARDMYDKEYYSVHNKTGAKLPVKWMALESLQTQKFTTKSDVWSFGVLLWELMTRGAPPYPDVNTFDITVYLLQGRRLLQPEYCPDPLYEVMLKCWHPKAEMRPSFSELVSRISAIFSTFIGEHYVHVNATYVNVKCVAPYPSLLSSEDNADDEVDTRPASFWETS
Sequence of UniProt Q07912 (whole entry, looked up): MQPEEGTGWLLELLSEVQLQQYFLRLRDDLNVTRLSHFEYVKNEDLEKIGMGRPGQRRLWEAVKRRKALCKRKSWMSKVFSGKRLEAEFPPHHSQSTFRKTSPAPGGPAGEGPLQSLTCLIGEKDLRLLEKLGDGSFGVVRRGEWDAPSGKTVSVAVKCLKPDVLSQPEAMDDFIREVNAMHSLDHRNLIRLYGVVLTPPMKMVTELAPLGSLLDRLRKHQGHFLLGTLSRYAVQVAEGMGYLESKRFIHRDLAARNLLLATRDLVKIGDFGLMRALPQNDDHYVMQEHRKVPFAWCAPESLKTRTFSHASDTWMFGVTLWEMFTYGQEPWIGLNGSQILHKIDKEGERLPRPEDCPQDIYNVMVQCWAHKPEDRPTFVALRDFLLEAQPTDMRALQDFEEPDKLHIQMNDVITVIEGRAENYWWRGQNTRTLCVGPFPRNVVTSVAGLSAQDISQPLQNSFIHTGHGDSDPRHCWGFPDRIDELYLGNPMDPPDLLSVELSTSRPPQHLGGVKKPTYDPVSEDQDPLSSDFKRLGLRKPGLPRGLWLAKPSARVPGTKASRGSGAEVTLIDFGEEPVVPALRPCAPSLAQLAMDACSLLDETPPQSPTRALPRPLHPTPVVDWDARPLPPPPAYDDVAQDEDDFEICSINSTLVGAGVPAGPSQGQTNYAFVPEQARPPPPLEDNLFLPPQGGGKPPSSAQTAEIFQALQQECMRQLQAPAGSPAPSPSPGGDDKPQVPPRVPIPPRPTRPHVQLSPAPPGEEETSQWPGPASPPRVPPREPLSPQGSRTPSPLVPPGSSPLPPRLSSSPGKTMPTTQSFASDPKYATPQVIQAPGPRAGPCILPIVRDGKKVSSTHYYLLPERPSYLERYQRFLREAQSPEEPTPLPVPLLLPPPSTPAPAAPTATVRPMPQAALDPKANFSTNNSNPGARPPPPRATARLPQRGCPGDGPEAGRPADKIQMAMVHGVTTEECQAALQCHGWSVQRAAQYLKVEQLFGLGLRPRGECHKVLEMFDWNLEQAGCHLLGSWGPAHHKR
Sequence of UniProt Q16539 (whole entry, looked up): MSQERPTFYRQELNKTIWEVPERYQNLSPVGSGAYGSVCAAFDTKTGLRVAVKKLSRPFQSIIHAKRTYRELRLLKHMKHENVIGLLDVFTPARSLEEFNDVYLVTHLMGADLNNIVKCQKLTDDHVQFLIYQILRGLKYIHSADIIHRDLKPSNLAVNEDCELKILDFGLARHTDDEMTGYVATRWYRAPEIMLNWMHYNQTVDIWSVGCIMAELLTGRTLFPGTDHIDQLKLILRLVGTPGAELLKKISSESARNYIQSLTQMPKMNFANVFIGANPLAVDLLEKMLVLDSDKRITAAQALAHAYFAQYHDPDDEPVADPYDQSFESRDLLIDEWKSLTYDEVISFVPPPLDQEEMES

Study 1
Structure (SMILES): COc1cc(-c2nc3ccc(C(=O)NCCCN(C)C)cc3n2C2CCC2)cc(OC)c1OC
| target | read-out | method | concentration | remaining binding |
| --- | --- | --- | --- | --- |
| Peripheral plasma membrane protein CASK (CASK, Homo sapiens, UniProt O14936) | binding | competition with immobilised ligand | 1 µM | 100% |
| Serine/threonine-protein kinase TBK1 (TBK1, Homo sapiens, UniProt Q9UHD2) | binding | competition with immobilised ligand | 1 µM | 91% |
| Mitogen-activated protein kinase kinase kinase 7 (MAP3K7, Homo sapiens, UniProt O43318) | binding | competition with immobilised ligand | 1 µM | 100% |
| BDNF/NT-3 growth factors receptor (NTRK2, Homo sapiens, UniProt Q16620) | binding | competition with immobilised ligand | 1 µM | 77% |
| Mitogen-activated protein kinase 14 (MAPK14, Homo sapiens, UniProt Q16539) | binding | competition with immobilised ligand | 1 µM | 83% |
| Inhibitor of nuclear factor kappa-B kinase subunit beta (IKBKB, Homo sapiens, UniProt O14920) | binding | competition with immobilised ligand | 1 µM | 85% |
| Homeodomain-interacting protein kinase 2 (HIPK2, Homo sapiens, UniProt Q9H2X6) | binding | competition with immobilised ligand | 1 µM | 93% |
| Protein kinase C epsilon type (PRKCE, Homo sapiens, UniProt Q02156) | binding | competition with immobilised ligand | 1 µM | 100% |
| Serine/threonine-protein kinase NIM1 (NIM1K, Homo sapiens, UniProt Q8IY84) | binding | competition with immobilised ligand | 1 µM | 70% |
| TGF-beta receptor type-2 (TGFBR2, Homo sapiens, UniProt P37173) | – | KINOMEscan | 1000 nM | 100% |
| Cyclin-dependent kinase 17 (CDK17, Homo sapiens, UniProt Q00537) | binding | competition with immobilised ligand | 1 µM | 96% |
| Membrane-associated tyrosine- and threonine-specific cdc2-inhibitory kinase (PKMYT1, Homo sapiens, UniProt Q99640) | binding | competition with immobilised ligand | 1 µM | 90% |
| Serine/threonine-protein kinase 10 (STK10, Homo sapiens, UniProt O94804) | binding | competition with immobilised ligand | 1 µM | 80% |
| Serine/threonine-protein kinase PAK 1 (PAK1, Homo sapiens, UniProt Q13153) | binding | competition with immobilised ligand | 1 µM | 95% |
| Serine/threonine-protein kinase ICK (CILK1, Homo sapiens, UniProt Q9UPZ9) | binding | competition with immobilised ligand | 1 µM | 74% |
| Hepatocyte growth factor receptor (MET, Homo sapiens, UniProt P08581) | binding | competition with immobilised ligand | 1 µM | 100% |
| Receptor tyrosine-protein kinase erbB-3 (ERBB3, Homo sapiens, UniProt P21860) | binding | competition with immobilised ligand | 1 µM | 55% |
| Activated CDC42 kinase 1 (TNK2, Homo sapiens, UniProt Q07912) | binding | competition with immobilised ligand | 1 µM | 100% |
| TGF-beta receptor type-1 (TGFBR1, Homo sapiens, UniProt P36897) | binding | competition with immobilised ligand | 1 µM | 67% |
| Inhibitor of nuclear factor kappa-B kinase subunit epsilon (IKBKE, Homo sapiens, UniProt Q14164) | binding | competition with immobilised ligand | 1 µM | 78% |
| Rhodopsin kinase GRK1 (GRK1, Homo sapiens, UniProt Q15835) | binding | competition with immobilised ligand | 1 µM | 90% |

Study 2
SMILES: C[C@@H]1CN(c2ccc(-c3cc(C(=O)NCCOCCOCCOCCOCCNC(=O)Cn4cc(-c5[nH]cc(C(=O)N[C@@H](CC(N)=O)c6ccc(F)c(Cl)c6)c5-c5ccc(Cl)cc5F)cn4)ccc3F)cc2NC(=O)c2c[nH]c(=O)cc2C(F)(F)F)C[C@H](C)N1C
Read-out: thermal unfolding
Method: differential scanning fluorimetry
Concentration: 5.5 µM
Direction: higher = more unfolded
WDR5: WD repeat-containing protein 5 (WDR5, Homo sapiens, UniProt P61964)
DCAF1: DDB1- and CUL4-associated factor 1 (DCAF1, Homo sapiens, UniProt Q9Y4B6)
Sequence of UniProt Q9Y4B6 (whole entry, looked up): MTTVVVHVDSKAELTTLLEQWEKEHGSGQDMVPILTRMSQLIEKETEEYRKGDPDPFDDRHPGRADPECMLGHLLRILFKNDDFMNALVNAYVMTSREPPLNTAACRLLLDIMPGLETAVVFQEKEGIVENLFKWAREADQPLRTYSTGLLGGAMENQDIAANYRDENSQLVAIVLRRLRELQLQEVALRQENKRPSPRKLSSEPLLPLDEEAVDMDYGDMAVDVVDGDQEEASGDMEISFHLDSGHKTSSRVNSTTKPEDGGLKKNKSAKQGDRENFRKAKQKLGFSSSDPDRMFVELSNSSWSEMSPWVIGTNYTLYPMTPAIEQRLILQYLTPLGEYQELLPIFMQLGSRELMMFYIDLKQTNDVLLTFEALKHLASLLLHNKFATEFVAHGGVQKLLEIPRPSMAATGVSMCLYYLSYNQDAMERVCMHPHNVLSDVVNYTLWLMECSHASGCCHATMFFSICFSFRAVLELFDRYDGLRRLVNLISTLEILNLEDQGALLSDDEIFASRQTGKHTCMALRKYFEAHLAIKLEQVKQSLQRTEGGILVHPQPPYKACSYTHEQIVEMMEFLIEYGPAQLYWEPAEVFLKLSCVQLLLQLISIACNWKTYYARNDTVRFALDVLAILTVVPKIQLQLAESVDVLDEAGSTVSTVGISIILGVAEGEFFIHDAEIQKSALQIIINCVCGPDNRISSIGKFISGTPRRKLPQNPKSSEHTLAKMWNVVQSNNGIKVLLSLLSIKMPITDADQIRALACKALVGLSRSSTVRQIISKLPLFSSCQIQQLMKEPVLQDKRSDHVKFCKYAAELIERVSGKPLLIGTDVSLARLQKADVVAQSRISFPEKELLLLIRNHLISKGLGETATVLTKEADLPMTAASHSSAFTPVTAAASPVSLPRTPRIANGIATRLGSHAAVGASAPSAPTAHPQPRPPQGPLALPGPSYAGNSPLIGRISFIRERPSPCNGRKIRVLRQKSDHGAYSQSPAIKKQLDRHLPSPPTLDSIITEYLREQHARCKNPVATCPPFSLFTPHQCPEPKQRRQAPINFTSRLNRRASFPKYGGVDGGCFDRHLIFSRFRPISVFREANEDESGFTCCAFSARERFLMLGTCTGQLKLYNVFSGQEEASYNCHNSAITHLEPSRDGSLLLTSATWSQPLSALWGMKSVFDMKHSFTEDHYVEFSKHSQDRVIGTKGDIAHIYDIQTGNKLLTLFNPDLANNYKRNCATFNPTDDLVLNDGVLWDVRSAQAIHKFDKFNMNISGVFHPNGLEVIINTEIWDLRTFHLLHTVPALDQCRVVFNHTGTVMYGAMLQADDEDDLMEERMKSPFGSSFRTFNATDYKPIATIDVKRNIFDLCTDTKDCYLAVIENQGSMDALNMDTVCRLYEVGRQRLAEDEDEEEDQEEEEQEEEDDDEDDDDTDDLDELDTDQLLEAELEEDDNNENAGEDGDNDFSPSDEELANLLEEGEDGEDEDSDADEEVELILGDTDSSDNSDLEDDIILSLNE
| target | temperature | SYPRO Orange fluorescence [a.u.] |
| --- | --- | --- |
| WDR5 | 49.8 °C | 14500 |
| DCAF1 | 76.81 °C | 47300 |
| DCAF1 | 45 °C | 12200 |
| WDR5 | 31 °C | 15000 |
| WDR5 | 28.2 °C | 14900 |
| DCAF1 | 31.2 °C | 8280 |
| DCAF1 | 50.6 °C | 15000 |
| WDR5 | 53.41 °C | 14300 |
| WDR5 | 34.8 °C | 14300 |
| DCAF1 | 27.2 °C | 7730 |
| DCAF1 | 74.21 °C | 50100 |

Study 3
Compound: C#Cc1cccc2cc(O)cc(-c3ncc4c(N5CC6CCC(C5)N6)nc(OCC56CCCN5CCC6)nc4c3F)c12
Target: GTPase HRas (HRAS, Homo sapiens, UniProt P01112)
Read-out: binding
Action: competitor
Method: NanoBRET
Cell line: HEK293
| concentration | normalized BRET |
| --- | --- |
| 169 pM | 92.9% and 92% and 99.1% and 102% |
| 1.11 µM | 68.3% and 96% and 92.2% and 81% |
| 4.57 nM | 104% and 102% and 111% and 92.9% |
| 10 µM | 38.5% and 49.7% and 59.2% and 54.2% |

Study 4
Target: Membrane-associated tyrosine- and threonine-specific cdc2-inhibitory kinase (PKMYT1, Homo sapiens, UniProt Q99640)
Read-out: binding
Method: HTRF
Concentration: 1000 nM
Residues (Q99640 1-499): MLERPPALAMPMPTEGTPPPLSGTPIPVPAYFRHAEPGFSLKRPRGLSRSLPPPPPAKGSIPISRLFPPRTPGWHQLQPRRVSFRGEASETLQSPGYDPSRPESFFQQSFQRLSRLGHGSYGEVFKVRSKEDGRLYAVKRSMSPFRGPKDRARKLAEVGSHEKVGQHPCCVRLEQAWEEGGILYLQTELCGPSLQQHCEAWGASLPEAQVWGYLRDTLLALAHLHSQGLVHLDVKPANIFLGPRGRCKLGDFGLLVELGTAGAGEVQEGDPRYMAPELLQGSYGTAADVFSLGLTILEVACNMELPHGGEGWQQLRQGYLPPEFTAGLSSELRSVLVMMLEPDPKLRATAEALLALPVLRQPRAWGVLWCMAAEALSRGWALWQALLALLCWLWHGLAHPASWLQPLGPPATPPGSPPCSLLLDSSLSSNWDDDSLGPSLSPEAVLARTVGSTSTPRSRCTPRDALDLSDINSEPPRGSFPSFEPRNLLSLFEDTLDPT
| Structure (SMILES) | inhibition |
| --- | --- |
| Cc1ncc(-c2cc3c(N)c(-c4c(C)ccc(O)c4C)cnc3[nH]2)cn1 | 95.9% |
| Cc1ccc(O)c(C)c1-c1cnc2[nH]c(-c3cnc(N4CCC(CN5CCN(c6ccc(NC7CCC(=O)NC7=O)c(F)c6)CC5)CC4)nc3)cc2c1C#N (racemic) | 100% |
| Cc1ccc(O)c(C)c1-c1cnc2[nH]c(-c3cnc(N4CCC(CN5CCN(c6c(F)cc(NC7CCC(=O)NC7=O)cc6F)CC5)CC4)nc3)cc2c1C#N (racemic) | 98.2% and 97.7% |
| Cc1ccc(O)c(C)c1-c1cnc2[nH]c(-c3cnc(N4CCC5(CC4)CC(N4CCN(c6cc7c(cc6F)c(N6CCC(=O)NC6=O)nn7C)CC4)CO5)nc3)cc2c1C#N (racemic) | 99.6% |
| Cc1ccc(O)c(C)c1-c1cnc2[nH]c(-c3cnc(N4CCC(CCN5CCN(c6cc7c(cc6F)c(N6CCC(=O)NC6=O)nn7C)CC5)CC4)nc3)cc2c1C#N | 100% |
| Cc1ccc(O)c(C)c1-c1cnc2[nH]c(-c3cnc(N4CCC5(CC4)CC(N4CCN(c6ccc7c(c6)C(=O)N(C6CCC(=O)NC6=O)C7=O)CC4)CO5)nc3)cc2c1C#N (mixture of isomers) | 100% |

Some of these lines once more (study 1):
| target | read-out | method | concentration | remaining binding |
| --- | --- | --- | --- | --- |
| Protein kinase C epsilon type (PRKCE, Homo sapiens, UniProt Q02156) | binding | competition with immobilised ligand | 1 µM | 100% |
| Serine/threonine-protein kinase NIM1 (NIM1K, Homo sapiens, UniProt Q8IY84) | binding | competition with immobilised ligand | 1 µM | 70% |
| TGF-beta receptor type-2 (TGFBR2, Homo sapiens, UniProt P37173) | – | KINOMEscan | 1000 nM | 100% |
| Cyclin-dependent kinase 17 (CDK17, Homo sapiens, UniProt Q00537) | binding | competition with immobilised ligand | 1 µM | 96% |
| Membrane-associated tyrosine- and threonine-specific cdc2-inhibitory kinase (PKMYT1, Homo sapiens, UniProt Q99640) | binding | competition with immobilised ligand | 1 µM | 90% |
| Serine/threonine-protein kinase 10 (STK10, Homo sapiens, UniProt O94804) | binding | competition with immobilised ligand | 1 µM | 80% |
| Serine/threonine-protein kinase PAK 1 (PAK1, Homo sapiens, UniProt Q13153) | binding | competition with immobilised ligand | 1 µM | 95% |
